Experimental data of several laboratories.
Every numbered part comes from another study and shows a few of its results, in no order. Substitutions count along the parent as printed.

Set 1
Target: CCNA2, cyclin fold, Cln2 fusion (human)
Technique: yeast growth competition, sequencing
Sample: yeast
Notes: strong parent motif
Baseline: not given
Reading: higher = stronger binding
Parent: viral docking peptide; YKVKRRLVFGADD; partner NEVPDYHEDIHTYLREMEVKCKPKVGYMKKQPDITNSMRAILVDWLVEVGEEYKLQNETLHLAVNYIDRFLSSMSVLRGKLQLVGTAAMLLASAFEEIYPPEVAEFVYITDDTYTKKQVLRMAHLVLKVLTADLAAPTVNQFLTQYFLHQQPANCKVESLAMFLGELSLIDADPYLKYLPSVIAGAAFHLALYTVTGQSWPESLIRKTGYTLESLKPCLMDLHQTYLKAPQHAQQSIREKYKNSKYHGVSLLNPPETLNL
For `V8D`, “normalised enrichment score” read 7.
`R6Y`: “normalised enrichment score” 2.55.
`V8C`: “normalised enrichment score” 6.66.
Under “normalised enrichment score”, `G10N` is recorded as 6.42.
`K2E` — result for “normalised enrichment score”: 5.65.
`K4Y`: “normalised enrichment score” 5.71.
`F9K` — result for “normalised enrichment score”: 0.561.
`V3M` — result for “normalised enrichment score”: 4.6.
Under “normalised enrichment score”, `K2F` is recorded as 6.08.
`F9R`: “normalised enrichment score” 0.671.
Under “normalised enrichment score”, `R5D` is recorded as 0.222.
Under “normalised enrichment score”, `R6A` is recorded as 5.68.
Under “normalised enrichment score”, `D13A` is recorded as 6.42.
Under “normalised enrichment score”, `R5H` is recorded as 2.45.
For `V3R`, “normalised enrichment score” read 4.17.
`G10Y`: “normalised enrichment score” 5.51.
For `R5K F9L`, “normalised enrichment score” read 2.15.
For `R5Y`, “normalised enrichment score” read 1.11.
For `L7W`, “normalised enrichment score” read 1.3.
`L7A` — result for “normalised enrichment score”: 0.539.
`R5M` — result for “normalised enrichment score”: 3.93.
`G10P` — result for “normalised enrichment score”: 6.28.
Under “normalised enrichment score”, `L7S` is recorded as 0.574.
For `G10K`, “normalised enrichment score” read 6.37.
`L7P` — result for “normalised enrichment score”: 0.842.

Set 2
Target: Sal-like protein 4, full length isoform A (SALL4, Homo sapiens, UniProt Q9UJQ4, residues 1-1053)
Chain of UniProt Q9UJQ4 (whole entry, looked up): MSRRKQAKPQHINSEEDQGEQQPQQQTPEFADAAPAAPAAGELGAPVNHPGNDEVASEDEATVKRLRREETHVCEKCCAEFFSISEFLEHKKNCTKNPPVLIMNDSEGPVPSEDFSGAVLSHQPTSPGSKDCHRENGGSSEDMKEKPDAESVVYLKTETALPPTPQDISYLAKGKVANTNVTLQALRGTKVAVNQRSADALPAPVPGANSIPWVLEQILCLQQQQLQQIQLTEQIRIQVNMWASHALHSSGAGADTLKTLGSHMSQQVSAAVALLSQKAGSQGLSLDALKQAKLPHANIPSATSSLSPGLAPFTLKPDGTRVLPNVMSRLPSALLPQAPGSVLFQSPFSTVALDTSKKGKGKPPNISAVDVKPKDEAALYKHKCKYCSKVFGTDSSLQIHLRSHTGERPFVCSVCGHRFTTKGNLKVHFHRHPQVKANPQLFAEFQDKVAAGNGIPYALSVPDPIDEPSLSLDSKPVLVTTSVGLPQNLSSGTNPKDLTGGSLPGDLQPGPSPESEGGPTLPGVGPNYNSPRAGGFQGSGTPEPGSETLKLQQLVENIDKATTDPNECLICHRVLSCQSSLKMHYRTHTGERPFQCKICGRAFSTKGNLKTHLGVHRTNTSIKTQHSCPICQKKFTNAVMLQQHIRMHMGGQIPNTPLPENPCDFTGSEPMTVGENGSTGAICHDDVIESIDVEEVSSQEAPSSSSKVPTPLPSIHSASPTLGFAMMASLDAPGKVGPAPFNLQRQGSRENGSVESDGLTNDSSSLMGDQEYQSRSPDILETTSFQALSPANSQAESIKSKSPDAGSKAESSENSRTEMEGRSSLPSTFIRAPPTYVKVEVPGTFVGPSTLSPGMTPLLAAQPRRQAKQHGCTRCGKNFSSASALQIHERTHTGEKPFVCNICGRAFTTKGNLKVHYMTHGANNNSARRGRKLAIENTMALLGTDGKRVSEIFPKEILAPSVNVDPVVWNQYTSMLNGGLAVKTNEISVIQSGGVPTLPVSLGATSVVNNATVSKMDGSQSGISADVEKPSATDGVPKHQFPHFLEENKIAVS
Technique: universal PBM
Molecule type: double-stranded DNA, one strand shown
Sample: in vitro
Concentration: 600 nM
Notes: 8-mer, flanks averaged, mean of replicates
Reading: higher = stronger binding
`CACAGCAC` gave an E-score of -0.216.
With `AAGCGAAA` the E-score was 0.121.
The E-score of `GCCTTACA` is reported as -0.0731.
`CTTTGCGA` has an E-score of -0.0646.
The E-score of `GATAGGCC` is reported as -0.255.
The E-score of `ACGTTTAT` is reported as 0.277.
For `CCTGCGGC`, the E-score was -0.428.
`CCAAGATA` has an E-score of 0.13.

Set 3
Target: tungstate, free oxyanion
Technique: microfluidic competitive inhibition
Sample: in vitro, cell-free expressed
Concentration: not given
Notes: derived from inhibition constants, unchanged parent 2230 nM
Reading: lower = stronger binding
Parent: PafA, mature enzyme, eGFP fusion (Elizabethkingia meningoseptica, UniProt Q9KJX5); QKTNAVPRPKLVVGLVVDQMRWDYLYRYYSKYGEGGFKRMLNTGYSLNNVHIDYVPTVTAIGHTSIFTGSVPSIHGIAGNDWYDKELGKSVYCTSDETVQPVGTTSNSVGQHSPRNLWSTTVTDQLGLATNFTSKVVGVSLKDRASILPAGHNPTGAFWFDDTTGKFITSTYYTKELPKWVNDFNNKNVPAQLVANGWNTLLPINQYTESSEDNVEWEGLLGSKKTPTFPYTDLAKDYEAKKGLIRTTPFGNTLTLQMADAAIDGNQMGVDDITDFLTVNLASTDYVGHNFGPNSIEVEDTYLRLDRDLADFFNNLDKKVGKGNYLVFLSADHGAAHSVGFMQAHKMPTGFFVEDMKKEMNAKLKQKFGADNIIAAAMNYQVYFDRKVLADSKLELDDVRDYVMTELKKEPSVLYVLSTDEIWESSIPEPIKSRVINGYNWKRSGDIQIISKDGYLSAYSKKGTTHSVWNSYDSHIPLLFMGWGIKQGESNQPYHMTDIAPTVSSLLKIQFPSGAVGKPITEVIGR
`P154G`: “oxyanion analog dissociation constant” 0.878 µM.
`H495V`: “oxyanion analog dissociation constant” 2.17 µM.
Under “oxyanion analog dissociation constant”, `R144G` is recorded as > 211 µM.

Set 4
Target: ABI1, truncated, D143A, DHFR fusion (Arabidopsis thaliana)
Technique: DHFR PCA, deep sequencing
Sample: yeast
Notes: methotrexate growth selection, single substitutions
With: (+)-ABA 200 µM
Baseline: wild-type fitted maximum
Reading: higher = stronger binding
Parent: PYL1, truncated, DHFR fusion (Arabidopsis thaliana); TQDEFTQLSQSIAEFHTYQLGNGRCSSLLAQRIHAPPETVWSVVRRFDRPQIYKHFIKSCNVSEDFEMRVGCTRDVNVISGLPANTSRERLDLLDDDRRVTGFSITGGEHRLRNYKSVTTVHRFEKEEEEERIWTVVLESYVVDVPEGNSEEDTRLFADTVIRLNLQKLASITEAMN
`G23R` — result for “relative binding score”: 96.2%.
Under “relative binding score”, `L93P` is recorded as 6.14%.
`N149R`: “relative binding score” 21.7%.
`T119W`: “relative binding score” -0.698%.
For `I105H`, “relative binding score” read 6.33%.
`L20K` — result for “relative binding score”: 102%.
`I52R`: “relative binding score” 98.7%.
`N77M` — result for “relative binding score”: 103%.

Set 5
Partner: ARF4 660-788 (Arabidopsis thaliana, UniProt Q9ZTX9)
Technique: two-hybrid
Baseline: out of 4 tests
Reading: higher = firmer interaction
B1: IAA33 (Arabidopsis thaliana, UniProt Q9FKM7); chain MNSFEPQSQDSLQRRFHQDNSTTQQPRDTTTPFIPKPASKNHNNSNSSSGAAGRSFQGFGLNVEDDLVSSVVPPVTVVLEGRSICQRISLDKHGSYQSLASALRQMFVDGADSTDDLDLSNAIPGHLIAYEDMENDLLLAGDLTWKDFVRVAKRIRILPVKGNTRQVKRNE
B2: ARF2 727-859 (Arabidopsis thaliana, UniProt Q94JM3); chain TKTNSSRSCTKVHKQGIALGRSVDLSKFQNYEELVAELDRLFEFNGELMAPKKDWLIVYTDEENDMMLVGDDPWQEFCCMVRKIFIYTKEEVRKMNPGTLSCRSEEEAVVGEGSDAKDAKSASNPSLSSAGNS
B3: IAA32 (Arabidopsis thaliana, UniProt Q8RYC6); chain MDPNTPADFFKGSSKFHTYYSQTKKGGGVIDLGLSLRTIQHETYLPPARMIGLDGYGELIDWSQPSYNSITQLKSEDTGHQRLAQGYYNNEGESRGKYAYVKVNLDGLVVGRKVCLVDQGAYATLALQLNDMFGMQTVSGLRLFQTESEFSLVYRDREGIWRNVGDVPWKEFVESVDRMRIARRNDALLPF
B4: IAA34 (Arabidopsis thaliana, UniProt Q9C5X0); chain MYCSDPPHPLHLVASDKQQKDHKLILSWKKPTMDSDPLGVFPNSPKYHPYYSQTTEFGGVIDLGLSLRTIQHEIYHSSGQRYCSNEGYRRKWGYVKVTMDGLVVGRKVCVLDHGSYSTLAHQLEDMFGMQSVSGLRLFQMESEFCLVYRDEEGLWRNAGDVPWNEFIESVERLRITRRNDAVLPF
B5: ARF1 538-665 (Arabidopsis thaliana, UniProt Q8L7G0); chain SRQIRSCTKVHMQGSAVGRAIDLTRSECYEDLFKKLEEMFDIKGELLESTKKWQVVYTDDEDDMMMVGDDPWNEFCGMVRKIFIYTPEEVKKLSPKNKLAVNARMQLKADAEENGNTEGRSSSMAGSR
Construct (chain): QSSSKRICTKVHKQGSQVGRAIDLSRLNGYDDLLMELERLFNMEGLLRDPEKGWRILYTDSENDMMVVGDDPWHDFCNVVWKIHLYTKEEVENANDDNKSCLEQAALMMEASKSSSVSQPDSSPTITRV
`B1 (IAA33)` has a positive tests of 1.
For `B2 (ARF2 727-859)`, the positive tests was 1.
For `B3 (IAA32)`, the positive tests was 0.
With `B4 (IAA34)` the positive tests was 2.
`B5 (ARF1 538-665)` gave a positive tests of 0.

Further values, each from its own experiment
`O=C(c1ccc(F)cc1)C1CCN(CCn2c(=S)[nH]c3ccccc3c2=O)CC1`: “log2 fold change” -1.59 (Sarcocystis neurona; parasite growth; 10 µM, 96 h, second screen; baseline: untreated).

A few entries again (set 1):
`G10Y`: “normalised enrichment score” 5.51.
Under “normalised enrichment score”, `K2F` is recorded as 6.08.
Under “normalised enrichment score”, `R5H` is recorded as 2.45.
For `V8D`, “normalised enrichment score” read 7.
Under “normalised enrichment score”, `R6A` is recorded as 5.68.
`V3M` — result for “normalised enrichment score”: 4.6.
`R5M` — result for “normalised enrichment score”: 3.93.
`R6Y`: “normalised enrichment score” 2.55.
